Measurements gathered from unrelated publications.
Compare with care: the assays were run in different laboratories. “And” joins repeats or separate records; there may be more than shown. ± marks the error that the study gave.

Compound | assay | system | conditions | scale | quantity | result
CCO[C@H]1CCN(Cc2c(OC)cc(C)c3[nH]ccc23)[C@H](c2ccc(C(=O)O)cc2)C1 |  | PNH patients, active haemolysis | oral, 50 mg, 4 weeks, treatment |  | incidence of dyspepsia | 0%
O=C(CCCCCCC(=O)Nc1ccc(CC[18F])cc1)NO |  | athymic nu/nu male mice, LNCaP xenograft, heart | intravenous, 2 h |  | tissue uptake | 1 ± 0.7 %ID/g
NC[C@@]1(CC(=O)O)[C@@H]2CC[C@H]3C[C@@H]2[C@@H]1C3 |  | human, severe renal impairment, plasma | dose not given | relative to: normal renal function | unbound AUC(0-t) increase | 276%
NC(=O)c1ccc(NCCCN2CCOCC2)c([N+](=O)[O-])c1 |  | aqueous buffer | pH 7.4 |  | solubility | 599 µg/mL
COc1cc(Nc2ncc3c(n2)-c2ccc(Cl)cc2C(c2c(F)cccc2OC)=NC3)ccc1C(=O)O | refers to: Hypercalcemia, all grades | cancer patients, phase 1/2 | oral, dose not given, with: pembrolizumab |  | patients with adverse event | 21%
CCc1c(-c2ccccc2)c(-c2ccccc2)nn1-c1ccccc1-c1cccc(OCC(=O)O)c1 |  | Sprague-Dawley rat | intravenous |  | MRT(0-inf) observed | 45.1 min and 62.7 min and 43 min
NC1(C(=O)N[C@@H](CCO)c2ccc(Cl)cc2)CCN(c2nc[nH]c3nccc2-3)CC1 |  | metastatic CRPC patients | 400 mg b.i.d., grade 3 to 4, treatment-related, with: enzalutamide 160 mg daily |  | incidence of blood creatinine increased | 0%
Cc1cc([C@H]2C[C@H]3[C@@H](CF)SC(N)=N[C@@]3(c3ccc(F)cc3F)CO2)on1 |  | male 129/SVE mouse, CSF | subcutaneous, 100 mg/kg, 1 h |  | CSF concentration | 1570 nM
CCc1cc(C(=O)NC)c2nccc(N3CCc4c(cc(Cn5ccnc5)cc4-c4cn(C)nc4C(F)(F)F)C3=O)c2c1 |  | Sprague Dawley rats | oral, 100 mg/kg twice daily, 7 days | relative to: vehicle | blood TP change | -1%
Cc1ccc(Sc2ccccc2N2CCNCC2)c(C)c1 |  | healthy adult men | oral, 2.5 mg single |  | increased blood creatine phosphokinase | 0%
CCn1ncc2c1-c1cnc(N)c(c1)O[C@H](C)c1cc(F)ccc1-c1nn(C)nc1C2 |  | female BALB/c nude mice, PDX | oral, 0.04 mg/kg once daily for 1 days, 1 h |  | unbound plasma concentration | 4.7 ± 0.3 nM
Nc1ncn([C@H]2C[C@H](O)[C@@H](CO)O2)c(=O)n1 |  | processed mouse plasma | 40 ng/mL, 12 h, 4 °C, autosampler stability |  | mean deviation from nominal | -0.45%
CCCc1ccc(-c2ccc(-c3cc(F)c(F)c(F)c3)c(F)c2)cc1 |  | rat, placenta | 1000 ng/mL in perfusate, middle dose, mixture of 21 LCMs |  | placental accumulation | 8.99 ± 10.4 ng/g
FC(F)(F)c1ccc(CNc2ccc(Cc3c[nH]c4ncc(Cl)cc34)cn2)cn1 | refers to: Vomiting | patients with advanced solid tumours, all cohorts | oral, 1000 mg/day, any grade |  | treatment-related adverse events | 20%
CNC(=O)c1ccc(-c2cnc3ncc(Cc4ccc5ncccc5c4)n3n2)cc1F |  | Japanese patients | oral, 400 mg, grade 3/4 |  | Dyspnea dose reduction/interruption | 0%
Cc1c(-c2ccc(N3CCc4cccc(C(=O)Nc5nc6ccccc6s5)c4C3)nc2C(=O)O)cnn1CC12CC3(C)CC(C)(C1)CC(OCCNCC[C@H](O)CO)(C3)C2 |  | beagle dog, male, anaesthetised | intravenous infusion, 0.3 mg/kg/min, 90 min | relative to: vehicle | QRS duration change | -1 ms
Cn1cc([C@@H]2COC[C@H](c3cccc(Br)c3)N2)cn1 | shake-flask, LC-HRMS | aqueous buffer | 16 h, pH 6.8 |  | solubility | > 750 µM
COc1ccc([C@@H](O)c2cc(-c3ncnc4cc(N5CCOCC5)ccc34)c(F)cc2Cl)nn1 |  | locally advanced rectal cancer | oral, 250 mg, with: capecitabine and radiotherapy |  | rectal haemorrhage TEAE | 50%
Cc1ccc([C@@H]2O[C@H](CO)[C@@H](O)[C@H](O)[C@H]2O)cc1Cc1ccc(-c2ccc(F)cc2)s1 |  | Japanese type 2 diabetes patients | 200 mg, day 2, 24 h urine collection | relative to: baseline | urinary magnesium excretion change | -10.7 mg
COC(=O)c1ccccc1NC(=O)CSc1nnc(-c2ccc(OC)cc2)n1C |  | aqueous buffer | pH 7.4 |  | solubility | < 2.95 µg/mL
Cc1cnc(N2CC3(CCOCC3)C2)c(C(=O)Nc2ccc(C(=O)N3CCc4cc(C(=O)Nc5c(C)cccc5F)sc4-c4ccccc43)cc2)c1 | safety pharmacology | dog | concentration not given |  | cardiovascular and respiratory effects | no effect

Compound | assay | system | conditions | scale | quantity | result
Cc1cc(C)c(CNC(=O)c2cc(Cl)c3c(c2C)O[C@@](C)([C@H]2CC[C@H](N(C)C)CC2)O3)c(=O)[nH]1 |  | relapsed/refractory NHL patients | oral, 200 mg once daily, onset after cycle 1 day 1 |  | grade ≥3 Platelet count decreased | 16.7%
CC[C@H](C)[C@H](NC(=O)CN)C(=O)N[C@@H](CC(C)C)C(=O)N[C@@H](CC(=O)O)C(=O)N[C@@H](C)C(=O)N[C@H](C(=O)N[C@@H](CC(C)C)C(=O)N[C@@H](CC(=O)O)C(=O)N[C@@H](C)C(=O)N[C@H](C(=O)N[C@@H](CCCCN)C(=O)N[C@@H](C)C(=O)N[C@H](C(=O)N[C@@H](C)C(=O)N[C@@H](CCCCN)C(=O)N[C@@H](C)C(=O)N[C@H](C(=O)N[C@@H](CCCCN)C(=O)N[C@@H](C)C(=O)N[C@@H](CCCCN)C(=O)N[C@@H](C)C(=O)NCC(N)=O)[C@@H](C)CC)[C@@H](C)CC)[C@@H](C)CC)[C@@H](C)CC | circular dichroism | 10 mM PBS | 100 µM |  | helical content | 27%
C[C@H](CCC(=O)NCC(=O)O)[C@H]1CC[C@H]2[C@@H]3CC[C@@H]4C[C@H](O)CC[C@]4(C)[C@H]3CC[C@]12C |  | human, plasma | control |  | Cmin | 8.46 ± 2.04 nM
Nc1nc2c(ncn2COCCO)c(=O)[nH]1 | shake-flask | methanol-ethanol mixture | 298.2 K, mass fraction 0.1 |  | solubility | 695 µg/mL
CCCCC[C@H](O)CC[C@@H]1[C@H]2Cc3cccc(OCC(=O)O)c3C[C@H]2C[C@H]1O | LC-MS/MS | female Japanese PAH patients, plasma | inhaled, 54 µg |  | geometric mean AUC(0-inf) | 0.86 ng·h/mL
COc1cccc(-c2n[nH]c(SCc3ccccn3)n2)c1OC |  | Sprague-Dawley rats, both sexes | oral dietary, 30 mg/kg/day, day 7, 0 h |  | plasma concentration | 192 ng/mL
CCn1c(=O)c(-c2cc(NC(=O)Nc3ccccc3)c(F)cc2Br)cc2cnc(NC)cc21 | refers to: lipase increased | human, moderate hepatic impairment | oral, 50 mg single dose |  | participants with drug-related TEAE | 50%
OC[C@H]1O[C@@H](c2ccc(F)c(Cc3cc4ccccc4s3)c2)[C@H](O)[C@@H](O)[C@@H]1O |  | Japanese patients, type 1 diabetes | oral, 100 mg/day, onset day 8 | relative to: patients | hypoglycaemia-related adverse event | 3%
O=c1[nH]c(=O)n([C@H]2C[C@H](O)[C@@H](CO)O2)cc1CCC[18F] |  | male CD-1 nu/nu mice, RG2 tumour, kidney | intravenous, dose not given, 2 h |  | biodistribution | 0.48 ± 0.24 %ID/g
CCOC(=O)N1C[C@@H](c2cc(F)c(O)c(F)c2)N[C@@H](c2cccc(C(F)(F)F)c2)C1 | shake-flask, LC-HRMS | aqueous buffer | 16 h, pH 6.8 |  | solubility | < 4 µM
C[C@H]1COC2=C1C(=O)C(=O)c1c2ccc2c1CCCC2(C)C |  | saline with 20% PEG400 | 24 h, 25 °C |  | equilibrium solubility | 114 µg/mL
O=c1[nH]c(=O)n([C@@H]2O[C@H](CO)[C@@H](O)[C@@H]2F)cc1CCCC[18F] |  | nude mice, RG2 tumour, spleen | intravenous, dose not given, 2 h |  | biodistribution | 0.11 ± 0.02 %ID/g
COc1cccc(OC)c1-c1cc(C(=O)NC2(C(=O)O)C3CC4CC(C3)CC2C4)nn1-c1ccc(C(=O)N(C)CCCN(C)CCCN(C)C(=O)CN2CCN(CC(=O)[O-])CCN(CC(=O)[O-])CCN(CC(=O)[O-])CC2)cc1C(C)C.[177Lu+3] (stereo not drawn) |  | mouse, HT-29 xenograft | 72 h post injection, biodistribution | relative to: tumour over bone uptake | tumour-to-bone ratio | 27.4
N[C@@H](C[18F])C(=O)O | PET imaging | female athymic nude mice, U-87 MG xenograft, tumor | intravenous, 30 min |  | tracer uptake | 1.68 ± 0.11 %ID/cc
Cc1cc(C(=O)NC(C)(C)COc2cccc3c2C(N)=NS(=O)(=O)N3)cc(C)n1 |  | Sprague-Dawley rat, plasma | oral, 10 mg/kg, vehicle 1% methylcellulose | relative to: female over male | AUC(last) ratio | 1.06
CCC(CC)[C@@H]1COC[C@@H](c2ccc(C#N)cc2)N1 | shake-flask, LC-HRMS | aqueous buffer | 16 h, pH 6.8 |  | solubility | > 750 µM
Cn1cc(Nc2nccc(-c3ccc4c(c3)CN(C3COC3)CC[C@H]4NC(=O)c3cn(C(C)(C)C)nn3)n2)cn1 |  | human, whole blood | 300 mg twice daily, day 14 | relative to: pre-dose baseline | monocyte count change | -0.84%
N#Cc1ccccc1[C@@H]1COCC2(CCOCC2)N1 | shake-flask, LC-HRMS | aqueous buffer | 16 h, pH 6.8 |  | solubility | > 750 µM
CCO[C@H]1CCN(Cc2c(OC)cc(C)c3[nH]ccc23)[C@H](c2ccc(C(=O)O)cc2)C1 |  | healthy volunteers, plasma | oral, 200 mg single dose, mean |  | total Cmax | 3580 ng/mL
N#Cc1ccc([C@@H]2COC[C@@H](c3ccc(F)cc3)N2)cc1 | shake-flask, LC-HRMS | aqueous buffer | 16 h, pH 6.8 |  | solubility | > 750 µM
CNCc1ccc(-c2[nH]c3cc(F)cc4c3c2CCNC4=O)cc1 |  | patients | oral, 600 mg twice daily, grade 4 |  | abdominal pain incidence | 0%

Excerpt of the above:
Compound | assay | system | conditions | scale | quantity | result
CCc1cc(C(=O)NC)c2nccc(N3CCc4c(cc(Cn5ccnc5)cc4-c4cn(C)nc4C(F)(F)F)C3=O)c2c1 |  | Sprague Dawley rats | oral, 100 mg/kg twice daily, 7 days | relative to: vehicle | blood TP change | -1%
Cc1ccc(Sc2ccccc2N2CCNCC2)c(C)c1 |  | healthy adult men | oral, 2.5 mg single |  | increased blood creatine phosphokinase | 0%
CCn1ncc2c1-c1cnc(N)c(c1)O[C@H](C)c1cc(F)ccc1-c1nn(C)nc1C2 |  | female BALB/c nude mice, PDX | oral, 0.04 mg/kg once daily for 1 days, 1 h |  | unbound plasma concentration | 4.7 ± 0.3 nM
Nc1ncn([C@H]2C[C@H](O)[C@@H](CO)O2)c(=O)n1 |  | processed mouse plasma | 40 ng/mL, 12 h, 4 °C, autosampler stability |  | mean deviation from nominal | -0.45%
CCCc1ccc(-c2ccc(-c3cc(F)c(F)c(F)c3)c(F)c2)cc1 |  | rat, placenta | 1000 ng/mL in perfusate, middle dose, mixture of 21 LCMs |  | placental accumulation | 8.99 ± 10.4 ng/g
